{"data": "Experimental data pooled from the literature", "note": "Lines come from different studies, so protocols differ. Several values in a cell are separate wells, animals, samples, runs or records. ± gives the spread as reported."}
{"SMILES": "CNc1ccccc1C(=O)O[C@H]1C[C@H](n2cnc3c(N)ncnc32)O[C@@H]1COP(=O)(O)OP(=O)(O)O", "target": "Unconventional myosin-Va (Gallus gallus, UniProt Q02440, D297C/G292C/I296C/S293C/V295G)", "assay": "stopped-flow FRET", "setting": "15 °C, with: MgCl2 2 mM", "quantity": "dissociation rate constant", "result": "4.5 ± 0.1 s⁻¹"}
{"SMILES": "CC(C)(C)CCN1C[C@@H]2[C@@H](CNC(=O)c3cc(Cl)cc(Cl)c3)[C@@H]2C1.Cl", "target": "Voltage-dependent L-type calcium channel subunit alpha-1F (Homo sapiens, UniProt O60840)", "assay": "calcium current, whole-cell patch clamp", "system": "HEK-293T cells", "setting": "50 nM, holding potential -50 mV, with: β2 and α2δ subunits", "quantity": "activation slope factor k", "result": "8.45 ± 0.2 mV"}
{"SMILES": "CN[C@@H](C)C(=O)N[C@H]1CCCCNC(=O)[C@H](Cc2ccccc2)NC(=O)[C@@H]2CCCN2C(=O)[C@@H](NC(=O)[C@H](C)NC)CCCCNC(=O)[C@H](Cc2ccccc2)NC(=O)[C@@H]2CCCN2C1=O", "target": "E3 ubiquitin-protein ligase XIAP, linker-BIR2-BIR3 (XIAP, Homo sapiens, UniProt P98170)", "assay": "binding, fluorescence polarization", "setting": "BIR2-BIR3 protein", "quantity": "Hill slope", "result": "~0.4"}
{"SMILES": "N#Cc1cnc2sc(C(=O)O)cc2c1N1CCc2[nH]nc(C(=O)N[C@@H](CC(=O)NCCOCCN3CCOCC3)c3cccc(Br)c3)c2C1", "target": "Interleukin-1 receptor-like 2, D1-D2 domains (IL1RL2, Homo sapiens, UniProt Q9HB29)", "assay": "SPR", "setting": "IL-36R D1-D2", "quantity": "koff", "result": "0.06 ± 0.0002 s⁻¹"}
{"SMILES": "O=C(CCCC[C@@H]1SC[C@@H]2NC(=O)N[C@@H]21)NCCCNC(=O)Cn1nc(-c2ccccc2)c2c(Cl)c(-c3ccccc3)nnc21", "target": "HSP90AB1 (Homo sapiens, UniProt P08238)", "assay": "affinity purification mass spectrometry", "setting": "10 µM, unit not given", "how to read": "reference: competitor-blocked control", "quantity": "enrichment", "result": 10}
{"SMILES": "CN(C1COC1)C(C)(C)/C=C(\\C#N)C(=O)N1CCC[C@H]1Cn1nc(-c2ccc(Oc3ccccc3)cc2F)c2c(N)ncnc21", "target": "Tyrosine-protein kinase (Rattus norvegicus, UniProt Q5S255)", "system": "rat, PBMC", "setting": "oral, 40 mg/kg, 14 (unit not given)", "quantity": "receptor occupancy", "result": "57 ± 9%"}
{"SMILES": "O=C(O)CCC(=O)C(=O)O", "target": "racE (Bacillus subtilis, UniProt P94556)", "assay": "enzyme activity, inhibitor", "quantity": "binding free energy", "result": "-4.64 kcal/mol"}
{"SMILES": "O=C(O)[C@H]1O[C@@H](O[C@H]2C=Cc3c(cc4ccc5cccc6c7ccccc7c3c4c56)[C@@H]2O)[C@H](O)[C@@H](O)[C@@H]1O", "target": "UGT1A1 (Homo sapiens, UniProt P22309)", "assay": "glucuronidation, substrate", "system": "UGT-expressing HEK293 homogenate", "setting": "normalized to UGT expression", "quantity": "kcat/Km", "result": "51.7 ± 10 M⁻¹ s⁻¹"}
{"SMILES": "CN[C@@H](C)C(=O)N[C@H]1CN(C(=O)Cc2ccccc2)CC[C@H]2CC[C@@H](C(=O)NCc3ccc(C(C)C)cc3)N2C1=O", "target": "E3 ubiquitin-protein ligase XIAP, BIR3 domain with caspase-9 (XIAP, Homo sapiens, UniProt P98170)", "assay": "antagonist", "setting": "50 µM, BIR3 domain", "quantity": "caspase-9 activity restored", "result": "23%"}
{"SMILES": "COc1ccc(-c2cc(C(F)(F)F)nc(NCc3ccc(Cl)cc3)n2)cc1OC", "target": "GLP1R (Homo sapiens, UniProt P43220)", "assay": "cAMP accumulation, positive allosteric modulator", "system": "HEK-293T overexpressing GLP1R", "setting": "with: EC20 GLP-1", "quantity": "Emax", "result": "51 ± 7.4%"}
{"SMILES": "C#Cc1ccc2c(=O)[nH]nc(Cc3ccc(F)c(C(=O)N4CCN(C(=O)C=C)CC4)c3)c2c1", "target": "PARP16 (Homo sapiens, UniProt Q8N5Y8)", "assay": "covalent labeling, click chemistry in-gel fluorescence", "system": "HEK293T", "setting": "300 nM", "quantity": "time to labeling saturation", "result": "~120 min"}
{"SMILES": "O=C1Nc2c(ccc(Cl)c2Cl)/C1=N/O", "target": "Calm1/Kcnn2, SK2-a isoform (Rattus norvegicus, UniProt P0DP29+P70604, A477I)", "assay": "channel current, potentiator, inside-out patch clamp", "setting": "with: 200 nM Ca2+", "how to read": "reference: mutant over wild type", "quantity": "EC50 shift", "result": "5 fold"}
{"SMILES": "CCOCCNC(=O)N1CCC[C@H](c2n[nH]c(-c3ccccc3)n2)C1", "target": "Aromatase (CYP19A1, Homo sapiens, UniProt P11511)", "assay": "enzyme activity, inhibitor, MFC to HFC conversion", "setting": "10 µM, with: MFC substrate", "quantity": "apparent Vmax", "result": "0.63 pmol HFC/min/pmol P450"}
{"SMILES": "CC(=O)N/C(N)=N/C(=N\\S(=O)(=O)c1ccc(C(F)(F)F)cc1)N1C[C@H](c2ccccc2)C(c2ccc(Cl)cc2)=N1", "target": "CNR1 (Homo sapiens, UniProt P21554, S123A)", "assay": "G protein signalling", "setting": "concentration not given, S123A mutant", "how to read": "reference: wild type", "quantity": "potency change", "result": "no effect"}
{"SMILES": "CN(C)c1ccc2c(-c3ccc(C(=O)NCCCC[C@@H](NC(=O)[C@@H](CCCNC(=N)N)NC(=O)[C@@H](CCCNC(=N)N)NC(=O)[C@@H](CCCNC(=N)N)NC(=O)[C@@H](CCCNC(=N)N)NC(=O)[C@@H](CCCNC(=N)N)NC(=O)[C@@H](CCCNC(=N)N)NC(=O)CCCCCNC(=O)[C@@H](CCCNC(=N)N)NC(=O)CCCCCNC(=O)c4ccc(-c5ccnc(N)n5)s4)C(N)=O)cc3C(=O)[O-])c3ccc(=[N+](C)C)cc-3oc2c1", "target": "cGMP-dependent protein kinase 1, isoform alpha (PRKG1, Homo sapiens, UniProt Q13976)", "assay": "fluorescence anisotropy", "setting": "with: cGMP, no Mg2+", "quantity": "affinity increase by cGMP", "result": "5 fold"}
{"SMILES": "NC(=O)C1CCNC(=O)C(Cc2ccc([N+](=O)[O-])cc2)NC(=O)C(Cc2ccco2)NC(=O)C(CC2CC2)NC(=O)C=CC(=O)N1 (stereo not shown)", "target": "ERBB4 (Homo sapiens, UniProt Q15303)", "assay": "DNA-templated library selection", "setting": "one selection round", "quantity": "enrichment factor", "result": 1.7}
{"SMILES": "Cn1ccc2c(N3CCN(CCCCOc4ccc5c(c4)NC(=O)CC5)CC3)cccc21", "target": "DRD2 (Homo sapiens, UniProt P14416, I184A)", "assay": "competitive binding kinetics", "setting": "with: [3H]N-methylspiperone", "how to read": "reference: I184A mutant over wild type", "quantity": "on-rate fold increase", "result": "2.2 fold"}
{"SMILES": "COc1ccc(/C=C/C(=O)NC[C@H]2O[C@H](OC)[C@@H](O)[C@@H](O)[C@@H]2O)cc1OC", "target": "lecB (Pseudomonas aeruginosa, UniProt Q9HYN5)", "assay": "binding, ITC", "setting": "25 °C", "quantity": "ΔG", "result": "-6.81 ± 0.16 kcal/mol"}
{"SMILES": "O=C(Nc1nc2ccccc2s1)C1CCN(S(=O)(=O)c2ccc(F)c(Cl)c2)CC1", "target": "Napepld (Mus musculus, UniProt Q8BH82)", "assay": "LC-MS/MS", "setting": "10 or 20 µM, 90 min, with: NOPE substrate", "quantity": "OEA/NOPE ratio", "result": "no effect"}
{"SMILES": "COc1cccc(C(=O)N[C@H]2[C@@H](O)[C@@H](CO)O[C@@H](S[C@@H]3O[C@H](CO)[C@H](O)[C@H](NC(=O)c4cccc(OC)c4)[C@H]3OS(=O)(=O)O)[C@@H]2O)c1", "target": "Galectin-3 (LGALS3, Homo sapiens, UniProt P17931)", "assay": "ITC", "setting": "pH 7.2, 4% DMSO", "quantity": "ΔG", "result": "-9.536 ± 0.0239 kcal/mol"}
{"SMILES": "CC(Oc1nc(-c2ccccc2)nc2ccccc12)C(=O)N(C)c1ccccc1 (stereo not shown)", "target": "Tspo (Rattus norvegicus, UniProt P16257)", "assay": "binding", "system": "rat brain homogenate", "setting": "pKi minus clogD", "quantity": "lipophilic efficiency", "result": "4.4 ± 0.5"}
{"SMILES": "COC(=O)c1ccc(CNC(=O)[C@@H]2C[C@@H](O)CN2C(C)=O)cc1", "target": "von Hippel-Lindau disease tumor suppressor, with Elongin B/C (VHL, Homo sapiens, UniProt P40337)", "assay": "isothermal titration calorimetry", "setting": "25 °C", "quantity": "binding free energy (ΔG)", "result": "-4.88 ± 0.01 kcal/mol"}
{"SMILES": "C=CC(=O)Oc1ccc(Cl)cc1C(=O)Nc1ccc([N+](=O)[O-])cc1Cl", "target": "Androgen receptor, AR-V7 isoform (AR, Homo sapiens, UniProt P10275)", "assay": "Western blot", "system": "CWR22Rv1", "setting": "1 µM, 16 h", "quantity": "AR variant protein level", "result": "inhibited"}
{"SMILES": "CC(C)(Sc1nc2ncccc2n1Cc1ccc(Br)c2ccccc12)C(=O)O", "target": "SLC22A12 (Homo sapiens, UniProt Q96S37)", "system": "HEK293T transfected", "setting": "non-competitive model fit, with: [14C]urate", "quantity": "Vmax urate uptake", "result": "2520 pmol/min/mg"}
{"SMILES": "C=C1CN(S(=O)(=O)c2ccc(C)cc2)CCCN(Cc2ccccc2)CCCN(S(=O)(=O)c2ccc(C)cc2)C1", "target": "CD4 (Homo sapiens, UniProt P01730)", "assay": "SILAC mass spectrometry", "system": "SUP-T1, crude membrane fraction", "setting": "10 µM, 17 h, reverse labelling", "how to read": "reference: DMSO over compound", "quantity": "protein level ratio", "result": "> 3 and 3.61"}
{"SMILES": "O=C(O)c1ccc(/C=C2\\SC(=S)N(Cc3cccc(C(F)(F)F)c3)C2=O)cc1", "target": "NACHT, LRR and PYD domains-containing protein 3, with ASC (Nlrp3, Mus musculus, UniProt Q8R4B8)", "system": "mouse BMDM", "setting": "concentration not given, with: nigericin", "quantity": "NLRP3 level", "result": "decreased"}
{"SMILES": "Nc1nc2c(ncn2C2OC3COP(=O)(O)OC4C5OCC4(CSP(=O)(O)OC3C2F)OC5n2cnc3c(=O)[nH]c(N)nc32)c(=O)[nH]1 (stereo not shown)", "target": "STING1 (Homo sapiens, UniProt Q86WV6)", "assay": "thermal shift", "how to read": "higher = stronger stabilisation", "quantity": "ΔTm", "result": "8 °C"}
{"SMILES": "Cc1ccccc1-c1nc(Nc2nc3ccccc3o2)ncc1C#N", "target": "Grm5 (Rattus norvegicus, UniProt P31424)", "assay": "calcium mobilization, negative allosteric modulator", "setting": "with: glutamate EC80", "how to read": "reference: maximal glutamate response", "quantity": "maximal response", "result": "1.9 ± 0.4%"}
{"note": "Repeated from above:"}
{"SMILES": "CC(C)(C)CCN1C[C@@H]2[C@@H](CNC(=O)c3cc(Cl)cc(Cl)c3)[C@@H]2C1.Cl", "target": "Voltage-dependent L-type calcium channel subunit alpha-1F (Homo sapiens, UniProt O60840)", "assay": "calcium current, whole-cell patch clamp", "system": "HEK-293T cells", "setting": "50 nM, holding potential -50 mV, with: β2 and α2δ subunits", "quantity": "activation slope factor k", "result": "8.45 ± 0.2 mV"}
{"SMILES": "O=C(O)c1ccc(/C=C2\\SC(=S)N(Cc3cccc(C(F)(F)F)c3)C2=O)cc1", "target": "NACHT, LRR and PYD domains-containing protein 3, with ASC (Nlrp3, Mus musculus, UniProt Q8R4B8)", "system": "mouse BMDM", "setting": "concentration not given, with: nigericin", "quantity": "NLRP3 level", "result": "decreased"}
{"SMILES": "Cc1ccccc1-c1nc(Nc2nc3ccccc3o2)ncc1C#N", "target": "Grm5 (Rattus norvegicus, UniProt P31424)", "assay": "calcium mobilization, negative allosteric modulator", "setting": "with: glutamate EC80", "how to read": "reference: maximal glutamate response", "quantity": "maximal response", "result": "1.9 ± 0.4%"}
{"SMILES": "CN[C@@H](C)C(=O)N[C@H]1CCCCNC(=O)[C@H](Cc2ccccc2)NC(=O)[C@@H]2CCCN2C(=O)[C@@H](NC(=O)[C@H](C)NC)CCCCNC(=O)[C@H](Cc2ccccc2)NC(=O)[C@@H]2CCCN2C1=O", "target": "E3 ubiquitin-protein ligase XIAP, linker-BIR2-BIR3 (XIAP, Homo sapiens, UniProt P98170)", "assay": "binding, fluorescence polarization", "setting": "BIR2-BIR3 protein", "quantity": "Hill slope", "result": "~0.4"}
